Published values of several laboratories.
± gives the spread as reported.
FGFR1: Fibroblast growth factor receptor 1 (FGFR1, Homo sapiens, UniProt P11362)
Chain of UniProt P11362 (whole entry, looked up): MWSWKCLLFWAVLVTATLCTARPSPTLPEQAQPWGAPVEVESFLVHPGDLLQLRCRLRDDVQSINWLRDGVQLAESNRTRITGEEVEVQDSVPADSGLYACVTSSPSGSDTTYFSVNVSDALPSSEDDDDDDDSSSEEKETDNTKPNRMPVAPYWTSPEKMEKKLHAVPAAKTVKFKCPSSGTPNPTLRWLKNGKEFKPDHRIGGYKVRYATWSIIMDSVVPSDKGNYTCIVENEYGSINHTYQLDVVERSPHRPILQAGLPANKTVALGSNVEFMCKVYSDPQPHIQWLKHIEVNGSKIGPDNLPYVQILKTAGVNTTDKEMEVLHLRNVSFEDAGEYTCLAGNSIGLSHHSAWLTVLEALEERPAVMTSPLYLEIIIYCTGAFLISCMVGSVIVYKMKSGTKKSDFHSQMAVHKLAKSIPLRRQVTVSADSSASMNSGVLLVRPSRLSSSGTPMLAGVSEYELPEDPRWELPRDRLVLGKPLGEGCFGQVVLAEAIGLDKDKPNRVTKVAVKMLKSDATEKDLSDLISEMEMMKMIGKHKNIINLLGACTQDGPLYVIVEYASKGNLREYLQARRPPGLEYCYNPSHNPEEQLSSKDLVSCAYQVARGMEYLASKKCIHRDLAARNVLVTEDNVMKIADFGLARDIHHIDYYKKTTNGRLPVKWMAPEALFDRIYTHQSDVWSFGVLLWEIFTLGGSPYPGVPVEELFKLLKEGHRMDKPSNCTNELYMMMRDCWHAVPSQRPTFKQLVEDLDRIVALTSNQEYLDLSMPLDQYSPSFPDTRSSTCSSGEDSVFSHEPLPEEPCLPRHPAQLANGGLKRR
Chain of UniProt Q07817 (whole entry, looked up): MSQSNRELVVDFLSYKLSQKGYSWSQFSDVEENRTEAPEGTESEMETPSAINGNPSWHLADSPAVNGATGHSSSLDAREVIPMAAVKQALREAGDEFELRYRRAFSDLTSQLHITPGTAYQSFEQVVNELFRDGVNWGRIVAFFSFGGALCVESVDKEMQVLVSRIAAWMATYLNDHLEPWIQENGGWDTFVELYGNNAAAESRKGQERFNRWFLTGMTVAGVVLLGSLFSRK
Chain of UniProt Q9NYA1 (whole entry, looked up): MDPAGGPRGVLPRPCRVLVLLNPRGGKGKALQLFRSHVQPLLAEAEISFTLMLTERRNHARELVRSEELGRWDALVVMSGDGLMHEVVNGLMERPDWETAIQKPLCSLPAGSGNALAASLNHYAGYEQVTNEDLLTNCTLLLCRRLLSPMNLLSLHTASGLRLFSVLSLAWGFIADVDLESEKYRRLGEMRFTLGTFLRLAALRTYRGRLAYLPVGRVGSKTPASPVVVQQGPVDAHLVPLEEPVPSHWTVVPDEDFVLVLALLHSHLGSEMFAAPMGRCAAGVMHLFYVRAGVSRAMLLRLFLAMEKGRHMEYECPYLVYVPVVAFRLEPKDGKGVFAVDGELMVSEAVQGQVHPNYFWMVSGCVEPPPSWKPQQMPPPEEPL
Chain of UniProt Q8N5Y8 (whole entry, unmodified, looked up): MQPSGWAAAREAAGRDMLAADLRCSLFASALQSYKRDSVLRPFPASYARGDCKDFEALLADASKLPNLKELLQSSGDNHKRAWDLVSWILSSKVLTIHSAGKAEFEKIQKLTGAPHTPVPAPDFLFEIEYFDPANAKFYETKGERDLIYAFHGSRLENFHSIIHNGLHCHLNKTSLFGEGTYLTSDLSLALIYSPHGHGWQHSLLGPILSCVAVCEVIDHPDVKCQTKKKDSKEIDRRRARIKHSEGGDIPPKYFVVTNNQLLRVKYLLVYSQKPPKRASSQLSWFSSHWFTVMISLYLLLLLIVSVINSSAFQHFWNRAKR
Chain of UniProt P62937 (whole entry, looked up): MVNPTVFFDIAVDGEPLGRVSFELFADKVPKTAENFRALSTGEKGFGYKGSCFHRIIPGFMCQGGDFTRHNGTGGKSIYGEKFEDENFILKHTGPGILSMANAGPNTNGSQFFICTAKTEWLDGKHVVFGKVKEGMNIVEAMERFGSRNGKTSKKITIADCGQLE
Chain of UniProt Q9Y251 (whole entry, looked up): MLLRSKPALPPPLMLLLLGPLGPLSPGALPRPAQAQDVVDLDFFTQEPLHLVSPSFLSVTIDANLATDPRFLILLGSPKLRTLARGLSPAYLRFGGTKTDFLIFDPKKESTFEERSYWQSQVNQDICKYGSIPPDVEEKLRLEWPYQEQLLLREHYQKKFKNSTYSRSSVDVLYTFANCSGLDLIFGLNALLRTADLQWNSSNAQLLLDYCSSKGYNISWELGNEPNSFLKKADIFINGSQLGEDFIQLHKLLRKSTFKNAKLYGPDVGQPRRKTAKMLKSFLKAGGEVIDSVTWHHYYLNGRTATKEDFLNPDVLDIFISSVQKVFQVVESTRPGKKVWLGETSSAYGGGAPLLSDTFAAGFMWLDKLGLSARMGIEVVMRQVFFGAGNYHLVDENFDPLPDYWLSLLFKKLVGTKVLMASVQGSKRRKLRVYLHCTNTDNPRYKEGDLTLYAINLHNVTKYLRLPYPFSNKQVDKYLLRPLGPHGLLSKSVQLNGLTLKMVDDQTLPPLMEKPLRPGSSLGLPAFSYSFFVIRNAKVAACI
Chain of UniProt P00488 (whole entry, looked up): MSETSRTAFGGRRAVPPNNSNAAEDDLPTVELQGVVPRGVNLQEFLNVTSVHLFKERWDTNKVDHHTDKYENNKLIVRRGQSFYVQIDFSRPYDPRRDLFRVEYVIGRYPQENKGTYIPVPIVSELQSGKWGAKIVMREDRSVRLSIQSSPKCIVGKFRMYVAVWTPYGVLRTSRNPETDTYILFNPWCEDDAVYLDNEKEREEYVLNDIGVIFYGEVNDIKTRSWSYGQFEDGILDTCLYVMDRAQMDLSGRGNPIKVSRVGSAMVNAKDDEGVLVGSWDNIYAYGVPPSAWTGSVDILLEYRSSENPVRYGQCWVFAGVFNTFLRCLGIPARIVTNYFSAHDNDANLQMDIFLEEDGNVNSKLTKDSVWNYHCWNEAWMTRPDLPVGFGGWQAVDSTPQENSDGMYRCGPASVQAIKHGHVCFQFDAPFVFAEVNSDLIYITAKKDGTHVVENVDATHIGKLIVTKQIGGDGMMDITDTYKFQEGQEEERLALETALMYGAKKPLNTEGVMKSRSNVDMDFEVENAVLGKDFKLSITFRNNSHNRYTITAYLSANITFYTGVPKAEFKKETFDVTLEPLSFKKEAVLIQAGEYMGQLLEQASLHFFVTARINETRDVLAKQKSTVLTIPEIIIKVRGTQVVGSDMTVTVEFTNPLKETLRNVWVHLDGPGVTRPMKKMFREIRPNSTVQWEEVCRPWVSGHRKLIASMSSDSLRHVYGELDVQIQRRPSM
Chain of UniProt Q08345 (whole entry, looked up): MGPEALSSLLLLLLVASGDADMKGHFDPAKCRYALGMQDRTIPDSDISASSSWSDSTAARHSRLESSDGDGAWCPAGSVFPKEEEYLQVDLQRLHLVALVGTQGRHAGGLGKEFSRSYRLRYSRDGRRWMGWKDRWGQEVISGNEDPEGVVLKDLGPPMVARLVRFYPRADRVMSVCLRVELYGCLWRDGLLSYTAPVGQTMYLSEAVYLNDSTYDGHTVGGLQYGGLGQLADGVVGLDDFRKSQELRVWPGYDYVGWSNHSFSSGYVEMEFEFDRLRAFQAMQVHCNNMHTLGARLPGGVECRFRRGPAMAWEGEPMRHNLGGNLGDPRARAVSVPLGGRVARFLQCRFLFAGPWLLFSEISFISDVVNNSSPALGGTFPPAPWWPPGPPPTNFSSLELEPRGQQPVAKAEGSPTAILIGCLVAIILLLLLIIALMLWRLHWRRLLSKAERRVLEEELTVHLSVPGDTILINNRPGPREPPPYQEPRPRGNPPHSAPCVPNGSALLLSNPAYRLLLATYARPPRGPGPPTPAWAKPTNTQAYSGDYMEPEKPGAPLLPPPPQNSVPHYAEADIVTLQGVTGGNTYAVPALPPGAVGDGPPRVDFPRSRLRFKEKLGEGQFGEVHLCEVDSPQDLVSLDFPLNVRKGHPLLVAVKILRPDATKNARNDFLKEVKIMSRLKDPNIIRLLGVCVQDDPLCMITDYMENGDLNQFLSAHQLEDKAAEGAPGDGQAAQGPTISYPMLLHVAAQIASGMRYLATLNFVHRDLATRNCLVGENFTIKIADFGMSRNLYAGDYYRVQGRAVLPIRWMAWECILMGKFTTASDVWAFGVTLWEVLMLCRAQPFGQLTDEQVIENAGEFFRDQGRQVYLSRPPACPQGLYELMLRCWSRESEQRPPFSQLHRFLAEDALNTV
Chain of UniProt Q8VYV7 (whole entry, looked up): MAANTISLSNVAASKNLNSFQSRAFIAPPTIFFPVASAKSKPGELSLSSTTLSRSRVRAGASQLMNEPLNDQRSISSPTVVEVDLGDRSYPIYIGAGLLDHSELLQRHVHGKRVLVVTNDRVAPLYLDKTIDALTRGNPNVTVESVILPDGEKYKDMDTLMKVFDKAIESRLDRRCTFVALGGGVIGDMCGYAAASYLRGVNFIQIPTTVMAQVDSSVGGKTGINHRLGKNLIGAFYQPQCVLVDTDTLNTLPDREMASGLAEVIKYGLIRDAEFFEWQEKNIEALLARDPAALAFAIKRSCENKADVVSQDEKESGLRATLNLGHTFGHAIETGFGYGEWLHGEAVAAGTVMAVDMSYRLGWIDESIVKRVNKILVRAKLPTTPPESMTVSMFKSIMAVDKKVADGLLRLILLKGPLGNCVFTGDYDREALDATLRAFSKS
Chain of UniProt O15379 (whole entry, looked up): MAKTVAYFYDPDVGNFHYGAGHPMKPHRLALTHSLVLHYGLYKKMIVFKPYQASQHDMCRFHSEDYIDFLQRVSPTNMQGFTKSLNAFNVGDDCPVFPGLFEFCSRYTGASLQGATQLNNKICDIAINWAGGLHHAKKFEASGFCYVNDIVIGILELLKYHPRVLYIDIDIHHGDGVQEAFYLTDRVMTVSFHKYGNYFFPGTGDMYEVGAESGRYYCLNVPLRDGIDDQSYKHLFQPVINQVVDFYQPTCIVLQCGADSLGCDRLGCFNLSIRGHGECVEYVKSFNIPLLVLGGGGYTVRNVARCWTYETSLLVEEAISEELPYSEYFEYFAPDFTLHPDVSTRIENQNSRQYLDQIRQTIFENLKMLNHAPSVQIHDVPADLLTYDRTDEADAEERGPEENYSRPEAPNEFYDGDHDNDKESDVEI

Structure (SMILES) | target | assay | conditions | IC50 [µM]
Cc1noc(NS(=O)(=O)c2ccc(NC(=O)c3cc(-c4cccc(Cl)c4)nc4ccccc34)cc2)c1C | PPIA (Homo sapiens, UniProt P62937) | enzyme activity, inhibitor | – | 4.88
N=C(N)SCc1ccccc1CSC(=N)N | TDO2 (Homo sapiens, UniProt P48775) | – | added: L-tryptophan 2 mM | 0.62
C#Cc1ccc2c(=O)[nH]nc(Cc3ccc(F)c(C(=O)N4CCN(C(=O)C=C)CC4)c3)c2c1 | Protein mono-ADP-ribosyltransferase PARP16, transmembrane domain deleted (PARP16, Homo sapiens, UniProt Q8N5Y8) | auto-MARylation, inhibitor | preincubated 30 min, added: NAD+ 400 µM | 0.275
NCCCCCO[C@H]1O[C@H](COS(=O)(=O)O)[C@@H](O[C@@H]2O[C@@H](C(=O)O)[C@@H](O[C@H]3O[C@H](COS(=O)(=O)O)[C@@H](O[C@@H]4O[C@@H](C(=O)O)[C@@H](O[C@H]5O[C@H](COS(=O)(=O)O)[C@@H](O[C@@H]6O[C@@H](C(=O)O)[C@@H](O[C@H]7O[C@H](COS(=O)(=O)O)[C@@H](O[C@@H]8O[C@@H](C(=O)O)[C@@H](O)[C@H](O)[C@H]8OS(=O)(=O)O)[C@H](O)[C@H]7NS(=O)(=O)O)[C@H](O)[C@H]6OS(=O)(=O)O)[C@H](O)[C@H]5NS(=O)(=O)O)[C@H](O)[C@H]4OS(=O)(=O)O)[C@H](O)[C@H]3NS(=O)(=O)O)[C@H](O)[C@H]2OS(=O)(=O)O)[C@H](O)[C@H]1NS(=O)(=O)O | Heparanase (HPSE, Homo sapiens, UniProt Q9Y251) | enzyme activity, inhibitor, TR-FRET | – | 1.1
C=C(C)C(=O)Nc1ccc(-c2c(C#Cc3cc(OC)cc(OC)c3)c3c(N)ncnc3n2C)cc1 | FGFR1 | Caliper mobility shift | 30 min preincubation, added: 100 µM ATP | 0.063
O=C(CCCCCCNCc1ccc(F)cc1)NO | HDAC3 (Homo sapiens, UniProt O15379) | enzyme activity, inhibitor, fluorescence | – | 0.24
CN(C)CC[C@H](CSc1ccccc1)Nc1ccc(S(=O)(=O)NC(=O)c2ccc3c(c2)CC[C@@H]2CN(Cc4ccccc4-c4ccc(Cl)cc4)CCN32)cc1[N+](=O)[O-] | BCL2L1 (Homo sapiens, UniProt Q07817) | ligand displacement, FP | – | 0.14
NCc1cccc(C2CCN(C(=O)c3cccc(OCC(=O)C4(O)CCC4)c3)CC2)c1 | Tryptase beta-1 (Homo sapiens, UniProt Q15661) | enzyme activity, inhibitor | tryptase 10 pM, added: AMC substrate | 0.0233
COc1cc2nccc(Oc3ccc(NC(=S)NCCCSC)c(Cl)c3)c2cc1C(N)=O | FGFR1 | – | – | 0.766
C=C1CN(S(=O)(=O)c2ccc(C)cc2)CCCN(Cc2ccccc2)CCCN(S(=O)(=O)c2ccc(C)cc2)C1 | CD4 (Homo sapiens, UniProt P01730) | protein level, flow cytometry | – | 0.79
CCCCCCCCc1ccc(CC[C@](N)(/C=C/P(=O)(O)O)CO)cc1 | SPHK1 (Homo sapiens, UniProt Q9NYA1) | enzyme activity, inhibitor | – | 24 ± 5.7
CNC(=O)C(Cc1ccc(I)cc1)NC(=O)CNC1CCN(C(=O)OC(C)(C)C)CC1 (centres unmarked) | DDR1 (Homo sapiens, UniProt Q08345) | cell-free assay | – | 1.2
N[C@@H](CCC(=O)N[C@@H](CS[Se]Cc1ccc(C(=O)Nc2cc(C(F)(F)F)c(Br)c(C(F)(F)F)c2)cc1)C(=O)NCC(=O)O)C(=O)O | Receptor-type tyrosine-protein phosphatase F (Homo sapiens, UniProt P10586) | enzyme activity, inhibitor | added: pNPP, GSH 1 mM | > 100
Cc1ccc(CNC(=O)[C@H](CCc2ccccc2)NC(=O)[C@@H](N)CCc2ccccc2)cc1 | 20S proteasome (Plasmodium falciparum, UniProt A0A5K1K7U1+Q8IJT1) | β5 activity, inhibitor | added: Suc-LLVY-AMC, PA28α-activated | 0.311
Cc1cc(-c2ccc(/N=N/c3ccc4c(S(=O)(=O)O)cc(S(=O)(=O)O)c(N)c4c3O)c(C)c2)ccc1/N=N/c1ccc2c(S(=O)(=O)O)cc(S(=O)(=O)O)c(N)c2c1O | F13A1 (Homo sapiens, UniProt P00488) | enzyme activity, inhibitor, fluorescence | pH 7.4 | ~6
COc1cc2nccc(Oc3ccc(NC(=S)NC4CC4)c(Cl)c3)c2cc1C(=O)NCC(F)(F)F | FGFR1 | – | – | 4.44
O=C(O)[C@]1(O)C[C@H](CP(=O)(O)O)[C@@H](O)[C@H](O)C1 | 3-dehydroquinate synthase, chloroplastic (DHQS, Arabidopsis thaliana, UniProt Q8VYV7) | enzyme activity, inhibitor, malachite green phosphate release | 29 °C | 0.0005

Some of these lines once more:
Structure (SMILES) | target | assay | conditions | IC50 [µM]
CNC(=O)C(Cc1ccc(I)cc1)NC(=O)CNC1CCN(C(=O)OC(C)(C)C)CC1 (centres unmarked) | DDR1 (Homo sapiens, UniProt Q08345) | cell-free assay | – | 1.2
N[C@@H](CCC(=O)N[C@@H](CS[Se]Cc1ccc(C(=O)Nc2cc(C(F)(F)F)c(Br)c(C(F)(F)F)c2)cc1)C(=O)NCC(=O)O)C(=O)O | Receptor-type tyrosine-protein phosphatase F (Homo sapiens, UniProt P10586) | enzyme activity, inhibitor | added: pNPP, GSH 1 mM | > 100
